Measurements from different studies.
Compare with care: the assays were run in different laboratories. Values joined by “and” are separate records of one study, mostly repeats; a detail may differ. Numbers after ± are the reported error.

With `CC1=CC(=O)CC(C)(C)[C@@]1(O)/C=C/C(C)=C\C(=O)O` the viability was 3.73% (OCI-Ly1; 1 µM, 120 h).
For `C/C(=N/c1ccc(/N=C/c2ccc(/C=N/c3ccc(/N=C(/C)N(C)C)cc3)cc2)cc1)N(C)C`, “worm burden reduction” read 89.4% (Necator americanus; infected hamsters; oral, 50 mg/kg single dose, 49 days after infection).
For `CN[C@H](CC(C)C)C(=O)N[C@H]1C(=O)N[C@@H](CC(N)=O)C(=O)N[C@H]2C(=O)N[C@H]3C(=O)N[C@H](C(=O)N[C@H](C(=O)O)c4cc(O)cc(O)c4-c4cc3ccc4O)[C@H](O)c3ccc(c(Cl)c3)Oc3cc2cc(c3O[C@@H]2O[C@H](CO)[C@@H](O)[C@H](O)[C@H]2O[C@H]2C[C@](C)(N)[C@H](O)[C@H](C)O2)Oc2ccc(cc2Cl)[C@H]1O`, the bacterial load was 5.87 log CFU and 6.14 log CFU and 5.07 log CFU and 6.19 log CFU and 5.32 log CFU and 7.47 log CFU (Staphylococcus epidermidis; 9397, female ICR mice, peritonitis, lung; dose not given).
With `CC(C)n1ncc2c(C(=O)NCC3(C)CNC3)cc(C3CC3)nc21` the virus titre was 1400 PFU/mL and 2000 PFU/mL (Enterovirus D68; time-of-addition; RD, US/MO/14-18947; 3 µM, 5 to 5 h post infection).
The growth of `COC(=O)[C@@H](CCSC)NCc1cc2ccccc2nc1SC` is reported as 98.3% (Pseudomonas aeruginosa; 2 µg/mL, added: pentamidine 100 µM; relative to: control).
`CC(=Nc1ccc(N=Cc2cc[nH]c2)cc1)N(C)C` — result for “worm burden reduction”: 95 ± 5% (Necator americanus; infected hamsters; oral, 50 mg/kg single; relative to: untreated).
`Cc1cc(OC(C)C)ccc1C(=O)C(C)(C)NC(=O)c1sccc1C` gave an inhibition of 99.6 ± 0.8% (Botrytis cinerea; appressorium formation; B05.10; 3 µg/mL).
For `COC(=O)[C@H](Cc1c[nH]c2ccccc12)NCc1cc2ccccc2nc1SC`, the growth was 96.3% (Pseudomonas aeruginosa; 32 µg/mL, without pentamidine; relative to: control).
The clinical score of `Nc1nc(-c2ccccc2)nc2[nH]nc(Nc3ccc(C(F)(F)F)cc3)c12` is reported as 0.3 (coxsackievirus B3; 31-1-93, NMRI mice, CVB3 chronic myocarditis; oral, 100 mg/kg twice daily, day 24, dosed days 3 to 10, score scale 0 to 7; direction not given).
With `O=C(/C=C/c1ccc(O)cc1)c1ccc(O)cc1O` the viability was 197% (OCI-Ly1; 0.1 µM, 120 h).

Repeated from above:
For `C/C(=N/c1ccc(/N=C/c2ccc(/C=N/c3ccc(/N=C(/C)N(C)C)cc3)cc2)cc1)N(C)C`, “worm burden reduction” read 89.4% (Necator americanus; infected hamsters; oral, 50 mg/kg single dose, 49 days after infection).
